Results gathered from unrelated publications.
Parts stem from different laboratories: compare values within a part only. Positions count from the first letter of the parent shown.

Study 1
Target: RING finger protein unkempt homolog, zinc fingers 1-6, GST-SBP tag (UNK, Homo sapiens, UniProt Q9C0B0, residues 30-357)
Chain of UniProt Q9C0B0 (30-357, looked up): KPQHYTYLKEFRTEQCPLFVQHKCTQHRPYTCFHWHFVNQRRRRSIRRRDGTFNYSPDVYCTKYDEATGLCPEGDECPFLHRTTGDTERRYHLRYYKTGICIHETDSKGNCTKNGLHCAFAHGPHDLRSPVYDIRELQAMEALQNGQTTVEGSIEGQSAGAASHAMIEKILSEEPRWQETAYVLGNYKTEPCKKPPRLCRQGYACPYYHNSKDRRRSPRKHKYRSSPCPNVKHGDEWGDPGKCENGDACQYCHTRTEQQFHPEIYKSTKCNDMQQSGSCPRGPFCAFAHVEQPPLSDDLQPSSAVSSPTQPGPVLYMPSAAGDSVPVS
Technique: RNA Bind-n-Seq
Form: RNA
Medium: in vitro
Tested at: not given
Setting: RNA with constant flanks, human and mouse sites, ends assumed
Baseline: input RNA pool
Direction: higher = stronger binding
Quantity: bound/input enrichment
Shared flanks, not repeated: GGGAGUUCUACAGUCCGACGAUC … CAACAGAGGAUUGAGCAUCA
GCAAAGGAUGAUGAGGCGGCAGCUGUUGCCCUUUCCUCUCUCGUUCAUGCUUUGGAUGAGUUAAACAUGGUCGCCAUCGUCCGAUAUGCUUAUGACAAAAGAUCUAAUCCUCAAGUUGGU: 0.204 ratio
UUUCACCUUCUCCCGGGUCAGCACACACAGAUUUGGGAGUAUUUACCUGCACAGAACGCACCUUCAGGAACUGCCAACCAGAAGCAAAAUCCAAAGCUGCUCUCUGCGAUCCCUUCACUU: 0.159 ratio
AGCUCUGAUACCUACUUUAAAUAGAGUUACAUUUAACCUUAAAGCUUUGGAGGAAUGAGCCAUCUCUUACUAGUCAUUAAAAAAAAUAUAUUUAAGAGCUACUACUUGUGAGGGGCUGCC: 3.36 ratio
UCUUUAUUCCUUCCUUUUCCUUUUUUUCUUUUUUUUUUCUUUUUUUUUUUUUUUUUUUGGUAGUUGUUGUUACCCACGCCAUUUUACGUCUCCUUCACUGAAGGGCUAGAGUUUUAACUU: 0.661 ratio
GCAACUCUCAUCUUCUUCCUUCUGGCACAAGUCUCUUGGGCUGGACCAUUUGAACAGAGAGGCUUAUUUGACUUCAUGCUAGAAGAUGAGGCUUCUGGCAUAAUCCCUUAUGACCCUGAC: 0.151 ratio
UGUGCCCACUCGAGUGCCUGUAAAGUACAAGCUCCAGAUCAAAAAAGCUUCUAGAUGGAUCCUUUCCAAACUUGGUGUCUUUUCUACAAACUCUGUGCCUCAACAACCAUUUCUAAGUGA: 0.169 ratio
GCUAUGCAAGCCUUAACUCUUCUGGGAGCAUGUGUAUCAAACUGUGGCAAAAUUUUUCACUUAGAAGUAUGUUCAAGAGACUUUGCUAGUGAAGUAAGCAAUGUAUUAAAUAAGGGUCAU: 1.5 ratio
CAGUGCCGGGAAGGAACUGCCGGGACUCACCGAGCUGCACUUAACUGUUCUCUUUCUGGCUAUUUUUUGUUGUUUGUUUCUUUGUGUUGACUUUGUCCCUGGCAAAAUUUUCCACUCUGA: 0.231 ratio
GGUGUGGAACUGGGUUCAGUUUGGCAAAGACUUGGUGCAGAUGUGACAGCAGUUGAAUUUUUGGGUCAUGUGGGUGGAAUUGGAAUUGACAUGGAGAUAUCAAAAAAUUUUCAACGUAUA: 0.559 ratio
CGGCUAAAGAUUGACUUUGGGGAAGCUGCCAGGGCAGAUGAUGCCCGGCAAUUAUUUGUUUUAGCUGGCAGUGCUGAAGAAGGAGUCAUGACUCCAGAACUAGCAGGAGUGAUUAAACGG: 0.389 ratio
UAUACUGGCAUUGAUCAUCACUGGAAAGACCCAGUCUUUGCCACUUGUGGACAGCAAGUAGACAUUUGGGAUGAACAAAGAACCAGCCCUGUGUGCUCAAUGAACUGGGGAUUUGACAGC: 0.22 ratio

Study 2
Target: CCNB1, cyclin fold, Cln2 fusion (human)
Technique: yeast growth competition, sequencing
Medium: yeast
Setting: strong parent motif
Baseline: not given
Direction: higher = stronger binding
Quantity: normalised enrichment score
Starting sequence: RBL2 docking peptide (human); STTRRRLFVENDS
STTRRRLIVENDS [F8I]: 0.359
STTRRRLQVENDS [F8Q]: 0.366
STTRRRLFVGNDS [E10G]: 0.18
STTRRRMFVENDS [L7M]: 0.801
STTRRILFVENDS [R6I]: 0.347
STTCRRLFVENDS [R4C]: 1.79
STTRRRLFVENDW [S13W]: 2.04
STTRRRLFVENVS [D12V]: 0.309
STTRRRLWVENDS [F8W]: 0.622
STTRRRLFVERDS [N11R]: 0.945
STTRRRLFVENRS [D12R]: 0.907
STTQRRLFVENDS [R4Q]: 1.05
STTRRRLFMENDS [V9M]: 0.708
DTTRRRLFVENDS [S1D]: 2.07
STTRRRLFWENDS [V9W]: 1.41
STTRRRLFVKNDS [E10K]: 0.455
STIRRRLFVENDS [T3I]: 2.29
STTRRRLPVENDS [F8P]: -0.0355
RTTRRRLFVENDS [S1R]: 1.3
STTRRRCFVENDS [L7C]: 0.325
STTRRRLFVEPDS [N11P]: 1.01
STTRRRLFVEFDS [N11F]: 0.96

Study 3
Target: Centromere-binding protein 1, full length, N-terminal tag (CBF1, Saccharomyces cerevisiae, UniProt P17106, residues 1-351)
Chain of UniProt P17106 (whole entry, looked up): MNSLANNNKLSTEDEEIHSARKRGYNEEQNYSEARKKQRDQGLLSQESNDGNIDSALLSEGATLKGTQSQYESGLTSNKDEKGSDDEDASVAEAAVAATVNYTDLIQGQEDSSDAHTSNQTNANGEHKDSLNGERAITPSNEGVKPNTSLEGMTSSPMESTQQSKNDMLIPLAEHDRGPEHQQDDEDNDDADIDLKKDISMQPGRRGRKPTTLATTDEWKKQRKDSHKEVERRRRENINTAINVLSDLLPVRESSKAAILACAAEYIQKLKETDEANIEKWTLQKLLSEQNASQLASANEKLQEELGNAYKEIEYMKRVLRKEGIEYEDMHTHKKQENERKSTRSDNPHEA
Technique: protein-binding microarray
Form: double-stranded DNA, one strand shown
Medium: in vitro
Tested at: 0.8 µM
Setting: whole 60-bp probe, no competitor
Direction: higher = stronger binding
Quantity: fluorescence intensity
Shared flanks, not repeated: … GTCTTGATTCGCTTGACGCTGCTG
GAATTCCTTTTTGGCAGCATGATGCAACCACATTAG: 522 a.u.
TGTACGAAGCTATAACCGATCACTATAGTAGTTAGG: 514 a.u.
GAAAAGGGACGTCGTAATCACGGTTACTAAGTATAG: 535 a.u.
CTAGTAATGAACCACCACCAGTTGTAAGCAGTCTTC: 563 a.u.
CTATGACCACAGCCGAAGGTGACGAAGGGATGGTTC: 499 a.u.
GAATAAAAAGTGTACCACATGTCATTAAAAGTTTAG: 1070 a.u.
CTAGCTTTCATGCCATTGGTGACACGAAAAAAATTC: 567 a.u.
GAATGGGGACCAATGATCATTTATGTACTATATTAG: 524 a.u.
GAAAATCATTAGCAGCACATGTCGAGCAACAGATAG: 854 a.u.
GAACTTGTTGCTAGGAACGTGATGATGGATTTCTAG: 1060 a.u.
CTACTGCTGCAGAATTACGTGACATTTCTCAGTTTC: 600 a.u.
CTAAATAAATCTGCTTACGTGACATTTTTTACTTTC: 721 a.u.
GAAGGTTCACTCCTACAGGTGATTCCTTCGAGATAG: 554 a.u.
TGTACGAAGCTATGGCACGCCGGTATAGTAGTTAGG: 535 a.u.
GAATGCACACGAAATCACGAGAATAATCACGAGTAG: 1110 a.u.
CTAGCGACCAGGAATCTCCTGATTGCGTACTACTTC: 542 a.u.
CTAAAAATAAATGAACACATGGAAATAAGTCAATTC: 634 a.u.
GAAGAAAAAACACCACACGCAATGGCCGCATATTAG: 490 a.u.

Study 4
Target: RNA binding protein fox-1 homolog 2, RRM domain, GST-SBP tag (RBFOX2, Homo sapiens, UniProt O43251-10, residues 100-194)
Technique: RNA Bind-n-Seq
Form: RNA
Medium: in vitro
Tested at: 365 nM
Setting: natural RNA segment, single round, ends assumed
Baseline: no-protein control
Direction: higher = stronger binding
Quantity: RBNS enrichment (R)
Shared flanks, not repeated: GGGAGUUCUACAGUCCGACGAUC … UGGAAUUCUCGGGUGCCAA
Construct (chain): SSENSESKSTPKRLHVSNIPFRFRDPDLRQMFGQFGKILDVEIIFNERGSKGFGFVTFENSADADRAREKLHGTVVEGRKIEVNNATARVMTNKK
UUUGGCCACAAAACACCAAAGAAUUGUAGGCAGUGGCCCCUAUUGAGAAGUUUUCCGGUAGAGUUGGAAAUCAGUUGUGAAUACAUUCUUUGCUAGUUGGAGUGCUUGUU: 0.854
CAGGAACCAAACACCUCCCCUGCACCUGUUCAUUCCUCCCAGUGGAGACUUCAGAUUGGAAUACCUUGGGAUCUCCUCACCCCACUUUACAGAACUGCCCAAUCCAGGGG: 0.428
UGUGAAAAGAAUUUGUUCAAGGCUUAACAUUUUUGAUACAGACUAAUAAAAUUUAAGAAACAAAGGAUUCUGGGAACAGACAGGAAGGGCCCUAGGUUACAUUUUUGGUG: 0.815
AUAUAUUUCCUAAAAUCUUUUUAAAGUGAAUUUAUAUGUGCACAUAUGUGUGUGUAGGGGGAGGAUAAGAACUGAAUUAUUUGAAACAGGUUAUUAUUUGAAACUGUAUU: 0.661
AAUAGAGAUUUACUUUAGGGGUCCCAUGGUUGGUAGCCCACAGCUUCUUCUAAAGGGCAUUGGCCUCUCAGGUGAACUUGCAGAGACUUGGCCAAAUUUGCUUCCUCUUU: 0.315
UCAGGCAUCUUCCCUUCACUCAAGCUUGGCUGCUUUCCUAGAUCCACACUUUCAAAGAGAAACCCCUCCAGAACUCCCACCCUGACAGCCCAACACCACCUUCCUCCUGG: 0.353
GGCACAGCUUGCAGGACCCUGGCUUUCUAAGCUGAACCACAGAUUGUUCUUCCACCCACCCUCUCUUUUUCUUUUUCUUUCAAGACAGGGAUUCUACGUGUAGCCCUGGC: 0.601
UCAAAAUCUCCUGUGUUUUUUAAGCUUUUUCAAAAUAGAUGUCUGAGGAAAACCAGCAGAAUAUUAACCAGUGUGGAGCCAGUUGUUGGGAGCACACACUUCCAUUAUGC: 0.364
AACAGAUUUCUUUUUCUUACUUUUUUUCCCCAUGAUCUAGAAACACAUGCCAAGAUUCUCAUGAGUUUUCUUACUUUGUCAUCCAUGUUCUUUUUCUAUUUGUAGGUCAA: 0.71
UCCCAGCGUGACUUAUUUGGGGAUUCCUCAGGGCCUACUGGAAUGUGACUGCCCACUGCCCAGCUGCCUCGGGUACAAGUCCUGGCCCUAUGUCCCAGCUGUCAGGGGCU: 0.712
AUGGCUUUGGUCUCUUGCUUGUGGGACUAGCCUGGCUUGGGACUAAAUGCCCUGCUCUGAACACGAAGCUUAGUAUAAACUGAUGGAUAUCCCUACCUUGAAAGAAGAAA: 26.4
GCAGGUCUCAGGAUCGGGGAUAACAUCGCUCCCACCCUGCUCAUUUAGAGAUGGGAAACAAGCAAGAGCUUGACUUGCCUCCCAUCCCUCAGCCUGUCUGUGGCAGAGCC: 0.894

Repeated from above (study 3):
TGTACGAAGCTATAACCGATCACTATAGTAGTTAGG: 514 a.u.
GAAAAGGGACGTCGTAATCACGGTTACTAAGTATAG: 535 a.u.
CTAGTAATGAACCACCACCAGTTGTAAGCAGTCTTC: 563 a.u.
CTATGACCACAGCCGAAGGTGACGAAGGGATGGTTC: 499 a.u.
GAATAAAAAGTGTACCACATGTCATTAAAAGTTTAG: 1070 a.u.
CTAGCTTTCATGCCATTGGTGACACGAAAAAAATTC: 567 a.u.
